Results pooled from the literature.
Each line is one published result; not all experiments were run side by side. ± gives the spread as reported.
Method: steady-state kinetics
B1: SCO6712 V290N/Y229F (Streptomyces coelicolor, UniProt Q9XAL8); chain AKGITARTAPAGGEVRHLKMYAEKLADGQMGYGFEKGKASVPGPLIEVNEGDTLHIEFTNTMDVRASLHVHGLDYEISSDGTAMNKSDVEPGGTRTYTWRTHKPGRRDDGTWRPGSAGYWHYHDHVVGTEHGTGGIRNGLYGPVIVRRKGDVLPDATHTIVFNDMTINNRKPHTGPDFEATVGDRVEIVMITHGEFYHTFHMHGHRWADNRTGILTGPDDPSRVIDNKITGPADSFGFQIIAGEGVGAGAWMYHCHNQSHSDMGMVGLFLVKKPDGTIPGYEPHEHGGATAKSGESGEPTGGAAAHEHEH
B2: ART1 (Homo sapiens, UniProt P52961); chain QSHPITRRDLFSQEIQLDMALASFDDQYAGCAAAMTAALPDLNHTEFQANQVYADSWTLASSQWQERQARWPEWSLSPTRPSPPPLGFRDEHGVALLAYTANSPLHKEFNAAVREAGRSRAHYLHHFSFKTLHFLLTEALQLLGSGQRPPRCHQVFRGVHGLRFRPAGPRATVRLGGFASASLKHVAAQQFGEDTFFGIWTCLGAPIKGYSFFPGEEEVLIPPFETFQVINASRLAQGPARIYLRALGKHSTYNCEYIKDKKCKSGPCHLDNS
B3: PYCR2 R251C (Homo sapiens, UniProt Q96C36); chain MSVGFIGAGQLAYALARGFTAAGILSAHKIIASSPEMNLPTVSALRKMGVNLTRSNKETVKHSDVLFLAVKPHIIPFILDEIGADVQARHIVVSCAAGVTISSVEKKLMAFQPAPKVIRCMTNTPVVVQEGATVYATGTHALVEDGQLLEQLMSSVGFCTEVEEDLIDAVTGLSGSGPAYAFMALDALADGGVKMGLPRRLAIQLGAQALLGAAKMLLDSEQHPCQLKDNVCSPGGATIHALHFLESGGFCSLLINAVEASCIRTRELQSMADQEKISPAALKKTLLDRVKLESPTVSTLTPSSPGKLLTRSLALGGKKD
B4: Por W677A (Rattus norvegicus, UniProt P00388); chain GDSHEDTSATMPEAVAEEVSLFSTTDMVLFSLIVGVLTYWFIFRKKKEEIPEFSKIQTTAPPVKESSFVEKMKKTGRNIIVFYGSQTGTAEEFANRLSKDAHRYGMRGMSADPEEYDLADLSSLPEIDKSLVVFCMATYGEGDPTDNAQDFYDWLQETDVDLTGVKFAVFGLGNKTYEHFNAMGKYVDQRLEQLGAQRIFELGLGDDDGNLEEDFITWREQFWPAVCEFFGVEATGEESSIRQYELVVHEDMDVAKVYTGEMGRLKSYENQKPPFDAKNPFLAAVTANRKLNQGTERHLMHLELDISDSKIRYESGDHVAVYPANDSALVNQIGEILGADLDVIMSLNNLDEESNKKHPFPCPTTYRTALTYYLDITNPPRTNVLYELAQYASEPSEQEHLHKMASSSGEGKELYLSWVVEARRHILAILQDYPSLRPPIDHLCELLPRLQARYYSIASSSKVHPNSVHICAVAVEYEAKSGRVNKGVATSWLRAKEPAGENGGRALVPMFVRKSQFRLPFKSTTPVIMVGPGTGIAPFMGFIQERAWLREQGKEVGETLLYYGCRRSDEDYLYREELARFHKDGALTQLNVAFSREQAHKVYVQHLLKRDREHLWKLIHEGGAHIYVCGDARNMAKDVQNTFYDIVAEFGPMEHTQAVDYVKKLMTKGRYSLDVAS
B5: enzyme D25A (Nitrosopumilus maritimus, UniProt A9A5X4); chain MDSQKFDSIIFDCDGVLVDITQSYAKTIDKTCRYVLKEFAKIDSITIDHKIIDGFKSSGGFNDEVDLVYAAILSLYTANKLNKKPSEFIYDVISNTDKTGIRSVQSYLESIYDVSEFLSKLGSLGDRHNNPVYSIFDQFFFGPELYGKLFDKQSKFSEEGMISNDKVILSVSLLETLQKEFGKKIAVVTGRGIESIRYSLKDMMDYFDTKNSAFLEDEPRELAKPNPATLIRAIQSMESKNCLYVGDSMEDYMMAKDAAQAGHSTTFCAIVGTSTNPEDRRKLFADSGVEMILESINDIPKVLNLV
B6: enzyme (UniProt A0A7S7NT01); chain APLPVRGIHLGAPSPEEMPLAIRFIEEALPKEGVNVLILEFNYRYQYASHPEVVDANALSADQVRQLAASCRKANVRLIPLINLLGHQSWAKTTFGLLRAHPEFDETPKMYPENKDIYCRSYCPRHPKVHGVLFDLIDELMAVTGADAFHAGMDEVFLLGEKECKRCRGRNKAELFANEVKAIHAHLAKQKKELWIWGDRLIDGKVTGIGKWEASVNDTAAALALIPKDVVINDWHYEAPHATGTYFALSGFRVVSSPWKKTPVALGQLAQIRDARAHSTKPVGDRMLGMLQTTWVGFGPFVRAYFGEGEPPKQGVPEAVECFRALFAELRTMN
B7: enzyme (Geobacillus stearothermophilus, UniProt P42328); chain MKAAVVEQFKEPLKIKEVEKPTISYGEVLVRIKACGVCHTDLHAAHGDWPVKPKLPLIPGHEGVGIVEEVGPGVTHLKVGDRVGIPWLYSACGHCDYCLSGQETLCEHQKNAGYSVDGGYAEYCRAAADYVVKIPDNLSFEEAAPIFCAGVTTYKALKVTGAKPGEWVAIYGIGGLGHVAVQYAKAMGLNVVAVDIGDEKLELAKELGADLVVNPLKEDAAKFMKEKVGGVHAAVVTAVSKPAFQSAYNSIRRGGACVLVGLPPEEMPIPIFDTVLNGIKIIGSIVGTRKDLQEALQFAAEGKVKTIIEVQPLEKINEVFDRMLKGQINGRVVLTLEDK
B8: aspC A106G/A17N/A218G/A278L/A281T/A8Q/D18E/F210I/F212I/F350Y/G15S/G249S/I187A/I279A/I29V/I33V/I341V/I5L/I68L/I71L/L46M/M321L/M380L/N285S/N30D/N64T/S129T/S135A/S273G/S351L/T100S/V125I/V136I/V375I/Y244C (Escherichia coli, UniProt P00509); chain MFENLTAQPADPILSLNELFRADERPGKVDLGVGVYKDETGKTPVMTSVKKAEQYLLENETTKTYLGLDGLPEFGRCTQELLFGKGSALINDKRARTAQSPGGTGGLRVAADFLAKNTSVKRVWISNPTWPNHKAIFNSAGLEVREYAYYDAENHTLDFDALINSLNEAQAGDVVLFHGCCHNPTGADPTLEQWQTLAQLSVEKGWLPLIDIAYQGFGRGLEEDAEGLRAFAAMHKELIVASSCSKNFSLYNERVGACTLVAADSETVDRAFGQMKALARTNYSSPPAHGASVVATILSNDALRAIWEQELTDMRQRIQRLRQLFVNTLQEKGANRDFSFVIKQNGMFSYLGLTKEQVLRLREEFGVYAVASGRINVAGLTPDNMAPLCEAIVAVL
B9: enzyme (Burkholderia cenocepacia, UniProt B4E589); chain MTGYDRQSISDTTAKILLEVQAVHFNAEKPFIFTSGWASPVYIDCRKLISYPRVRRALMEMAETTITRDIGFEQIDAVAGGETAGIPFAAWIADRMMVPMQYVRKKPKGFGRNAQIEGHLEEGSRVLLVEDLTTDSRSKINFVNALRTAGATVNHCFVLFHYNIFKESVSVLKDIDVDLHALATWWDVLRVAKASGYFETKTLDEVEKFLHAPAEWSAAHGGATAPKE
B10: enzyme (Bilophila wadsworthia, UniProt E5Y8P9); chain MKTVSEQMELARKAQAIVNDYTQEQIDEICLAIGWEVYEDENIAKLAKMAVEETGYGNVQSKIIKHKRKVGGVLHDIKGAKSVGLIERNEETGISKYAKPVGVVCAILPATNPTATCGGKAVGILKGRNAVIFKPSSRALKSTTEAINMMRAGLRKVGAPEDLIQVLEDPSREAITELMKVSDLIVATGSGQVVRAAYSSGTPAYGVGQGNACAIVAEDADVAEAAKMICGSKLFDYATSCSSENAVIPVEAVYDQFMAEMKKNGCYLVTGEDREKLKNHMWKPNAKGKIALNPDIIAKSAQVIADGAGISIPEGTDILLVEGMEPILGDKFHDEKISPVLTVYKAKDFKDAYRILVELTNLVGRGHSCGIHTYKHEYIEFLGEHMKSSRITVRQSMSAGNGGHPFNRMPSTATLGCGTWGGNSTTENVHWRHFINVTWVNEPVAPWTFTDEDMWGDFWKKYGK
B11: enzyme (Acinetobacter baumannii, UniProt A0A5P1UDB1); chain MFIEQDIQLGYVPFPKSRAQQYRDEGCWKSQTHFQLLASLKDRFAQRVAVIQDDKQLTYQQLYDYAIHYGTYLKQQGIRETDFVLLQSPNVIEVFIVIFGLYAIGARPVFCLHGHGSYEIENIARQSRAVGFLKLCGSANESTATDVCEEFSKPNFKLWFRESIVSRSSIEASLPQLQGVAPAFNLRAQSESEDIAFLQLSGGTTGLPKLIPRTHADYIYSIEKSVDVAGLTQDTKQLVVLPVMHNFCMSSPGFLGVFYVGGTVVLSQLTHPRVCFELIEKYQIQQVSLVPAIATLWLNAESLKDYDLSSLQVVQVGGAKLLPSLAEQIIDTLQVKLQQVYGMAEGLVNFTHLDDSDQITIQTQGKKLSHLDEIRIADQDGNALPINAIGHIQTRGPYTINGYYNLPEINQRAFTQDGFYKTGDIGYLDENLNIVVTGREKEQINRSGEKITPSEIEEFILQYPSVKDVCVIGVSDDYLGERIKAIIIPKLDDSEINLKNIRKFLISKNIAHFKIPDEIEVVADFKYTHVGKVNRQKLG

`gdh E198C (Bacillus subtilis)` has a kcat of 28.4 ± 1.31 s⁻¹ (NC(=O)c1ccc[n+]([C@@H]2O[C@H](COP(=O)(O)OP(=O)(O)OC[C@H]3O[C@@H](n4cnc5c(N)ncnc54)[C@H](O)[C@@H]3O)[C@@H](O)[C@H]2O)c1; pH 8, 45 °C).
`enzyme (UniProt A0A097IUD8)` has a kcat of 33.9 ± 0.4 s⁻¹ (Nc1ncnc2c1ncn2[C@@H]1O[C@H](COP(=O)(O)OP(=O)(O)O)[C@@H](O)[C@H]1O; pH 6, 25 °C, added: 16 mM PEP).
For `B1 (SCO6712 V290N/Y229F)`, the kcat was 1.96 ± 0.08 s⁻¹ (CCn1c(=NN=c2sc3cc(S(=O)(=O)O)ccc3n2CC)sc2cc(S(=O)(=O)O)ccc21; pH 7, 37 °C, NaCl 150 mM, added: O2 cosubstrate).
The kcat of `B2 (ART1)` is reported as 8 ± 0.8 s⁻¹ (COC(=O)[C@@H](N)CCCNC(=N)N; pH 7.5, 25 °C, HEPES 50 mM, added: saturating NAD+).
For `B3 (PYCR2 R251C)`, the kcat was 1.8 ± 0.1 s⁻¹ (NC(=O)C1=CN([C@@H]2O[C@H](COP(=O)(O)OP(=O)(O)OC[C@H]3O[C@@H](n4cnc5c(N)ncnc54)[C@H](OP(=O)(O)O)[C@@H]3O)[C@@H](O)[C@H]2O)C=CC1; pH 7.5, 37 °C, apparent, cofactor varied, added: DL-P5C 5000 µM).
For `B4 (Por W677A)`, the kcat was 38.9 ± 9.33 s⁻¹ (NC(=O)C1=CN([C@@H]2O[C@H](COP(=O)(O)OP(=O)(O)OC[C@H]3O[C@@H](n4cnc5c(N)ncnc54)[C@H](O)[C@@H]3O)[C@@H](O)[C@H]2O)C=CC1; added: cytochrome c).
The kcat of `B5 (enzyme D25A)` is reported as 0.029 ± 0.001 s⁻¹ (N[C@H](COP(=O)(O)O)Cc1c[nH]cn1; pH 7.8, 25 °C).
For `B6 (enzyme)`, the kcat was 17.1 s⁻¹ (CC(=O)N[C@H]1[C@H](Oc2ccc([N+](=O)[O-])cc2)O[C@H](CO)[C@@H](O[C@@H]2O[C@H](CO)[C@H](O)[C@H](O)[C@H]2O)[C@@H]1O; pH 6, 45 °C).
`enzyme (Pseudomonas aeruginosa, UniProt Q9I5Q5)` gave a kcat of 46 ± 13 s⁻¹ (CC(=O)N[C@H]1[C@@H]2OC[C@@H](O2)[C@@H](O)[C@@H]1O[C@H](C)C(=O)O; pH 7.5, apparent).
`enzyme (Arabidopsis thaliana, UniProt Q9FFF6)` gave a kcat of 0.0093 s⁻¹ (CC/C=C\C[C@@H]1C(=O)CC[C@@H]1CC(=O)O; pH 7.5, 20 °C).
With `ALDH7A1 (Homo sapiens, UniProt P49419)` the kcat was 0.27 ± 0.02 s⁻¹ (N[C@@H](CCCC=O)C(=O)O; pH 8, apparent, added: NAD+ 2.5 mM).
`B7 (enzyme)` gave a kcat of 12.3 ± 0.16 s⁻¹ (NC(=O)c1ccc[n+]([C@@H]2O[C@H](COP(=O)(O)OP(=O)(O)OC[C@H]3O[C@@H](n4cnc5c(N)ncnc54)[C@H](O)[C@@H]3O)[C@@H](O)[C@H]2O)c1; pH 8, apparent, cofactor varied).
`B8` gave a kcat of 0.14 s⁻¹ (N[C@@H](Cc1ccc(O)cc1)C(=O)O; pH 7.5, 25 °C, added: PMP 20 µM).
For `ftsZ (Caulobacter crescentus, UniProt B8H080)`, the kcat was 0.0667 ± 0.00833 s⁻¹ (Nc1nc2c(ncn2[C@@H]2O[C@H](COP(=O)(O)OP(=O)(O)OP(=O)(O)O)[C@@H](O)[C@H]2O)c(=O)[nH]1).
`HNL C81L/E79H/G176S/H103V/K236M/N104A/T11G (Hevea brasiliensis)` has a kcat of 0.00983 ± 0.00233 s⁻¹ (CC(=O)Oc1ccc([N+](=O)[O-])cc1; pH 7.2, 21 °C).
With `B9 (enzyme)` the kcat was 0.017 ± 0.005 s⁻¹ (O=P(O)(O)OC[C@H]1O[C@H](OP(=O)(O)OP(=O)(O)O)[C@H](O)[C@@H]1O; pH 7, room temperature, added: orotate 1 mM).
The kcat of `putA (Escherichia coli, UniProt P09546)` is reported as 3.3 ± 0.05 s⁻¹ (O=C(O)[C@@H]1CCCN1; pH 7.4, added: CoQ1).
`B10 (enzyme)` gave a kcat of 38.9 ± 0.9 s⁻¹ (NC(=O)c1ccc[n+]([C@@H]2O[C@H](COP(=O)(O)OP(=O)(O)OC[C@H]3O[C@@H](n4cnc5c(N)ncnc54)[C@H](OP(=O)(O)O)[C@@H]3O)[C@@H](O)[C@H]2O)c1; pH 9.5, apparent, cofactor varied).
For `proA (Escherichia coli, UniProt P07004)`, the kcat was 15 ± 1 s⁻¹ (N[C@@H](CCC=O)C(=O)O; pH 7.6, apparent, added: 1 mM NADP+).
The kcat of `B11 (enzyme)` is reported as 0.0195 ± 0.0008 s⁻¹ (O=C(O)c1cccc(O)c1O; pH 7.5, 37 °C, apparent).

For quick reference, copied from above:
The kcat of `B11 (enzyme)` is reported as 0.0195 ± 0.0008 s⁻¹ (O=C(O)c1cccc(O)c1O; pH 7.5, 37 °C, apparent).
`enzyme (Arabidopsis thaliana, UniProt Q9FFF6)` gave a kcat of 0.0093 s⁻¹ (CC/C=C\C[C@@H]1C(=O)CC[C@@H]1CC(=O)O; pH 7.5, 20 °C).
